Experimental data pooled from the literature.
Each line is one published result; not all experiments were run side by side. Several values in a cell are separate wells, animals, samples, runs or records. ± marks the error that the study gave.
Nuclear receptor subfamily 2 group C member 2 ligand-binding domain: Nuclear receptor subfamily 2 group C member 2, ligand-binding domain (Homo sapiens, UniProt P49116)

For `O=C1OC(c2ccccc2)=N/C1=C\c1ccc(O)cc1`, the Vmax was 0.048 mg/mL/min (Pancreatic alpha-amylase (Homo sapiens, UniProt P04746); inhibitor, Lineweaver-Burk; 100 ppm, with: starch substrate).
`Nc1ncnc2c1ncn2[C@@H]1O[C@H](COP(=O)(O)OP(=O)(O)NP(=O)(O)O)[C@@H](O)[C@H]1O`: “relative channel-depressing potency” 10% (ATP-sensitive inward rectifier potassium channel 1 (Rattus norvegicus, UniProt P35560); inside-out patch clamp; renal principal cells, rat; reference: ATP).
`Cc1cccc(N2CC(C(=O)O)CC2=O)c1` (stereo not shown) gave a fold enrichment of 0.947 (E3 SUMO-protein ligase PIAS1 (PIAS1, Homo sapiens, UniProt O75925); binding, affinity selection mass spectrometry; reference: other proteins in batch).
For `Cc1onc(-c2ccccc2)c1-c1ccc(S(N)(=O)=O)cc1`, the confluence was 0.93 ± 0.01 (COS-7; 50 µM, 24 h, 0.1% DMSO, unit not given; reference: vehicle control).
`COc1cccc(OC[C@H]2CN(CCN3CCc4ccccc43)CCO2)c1` has an inhibition of 10.3% (HTR4 (Homo sapiens, UniProt Q13639); radioligand binding; concentration not given).
`Cc1cc(O)c2c(c1)C(=O)c1cccc(O)c1C2=O` has a cell viability of 93.9 ± 9.34% (HepaRG co-cultured with HK-2; MTT; 133.33 µM, 24 h; reference: untreated control).
`O=C(COP(=O)(O)O)[C@@H](O)[C@H](O)[C@H](O)COP(=O)(O)O`: “thermal stability ratio” 0.778 and 0.636 and 0.458 (Myb-binding protein 1A (Homo sapiens, UniProt Q9BQG0); thermal proteome profiling, item: MYBBP1A; HepG2 cell lysate; concentration not given, 57 over 37 °C; reference: compound over control).
For `Nc1ncnc2c1ncn2[C@@H]1O[C@H](COP(=O)(O)CP(=O)(O)OP(=O)(O)O)[C@@H](O)[C@H]1O`, the specific binding was 5000 CCPM and 11500 CCPM and 5560 CCPM (P2X purinoceptor 1 (P2RX1, Homo sapiens, UniProt P51575, S286A); saturation binding; HEK293; 103 nM).
For `CC1=C(/C=C/C(C)=C/C=C/C(C)=C/C=O)C(C)(C)CCC1`, the relative kon was 1.17 ± 0.23 (Rhodopsin (RHO, Bos taurus, UniProt P02699, I189V/S144F); retinal entry, Alexa488 FRET; lipid bicelles; 28 °C, I189V mutant; reference: wild-type rhodopsin).
For `CN1CCN(C2=Nc3ccccc3Oc3ccc(Cl)cc32)CC1`, the koff was 8.88e-07 s⁻¹ (Nuclear receptor subfamily 2 group C member 2 ligand-binding domain; SPR imaging; 600 nM).
Under “normalised MST signal”, `NCCCS(=O)(=O)O` is recorded as 0.301 (SLC6A6 (Homo sapiens, UniProt P31641, Y138A); binding, microscale thermophoresis; 15.6 µM, room temperature, with: 50 nM labelled protein; higher = more binding).
For `NC(=O)c1cccnc1`, the koff was 4.59e-07 s⁻¹ (Nuclear receptor subfamily 2 group C member 2 ligand-binding domain; SPR imaging; 600 nM).
`CC(Nc1nc(N2CCCC2)nc2ccccc12)c1ccccc1` (stereo not shown) — result for “cells with nuclear reporter”: 4.23% and 4.97% and 4.85% (Exportin-1 (XPO1, Homo sapiens, UniProt O14980); nuclear export, high content imaging; HeLa Kyoto reporter; 31.65 µM, 2 h).
The cell viability of `COc1cc2c(c(O)c1OC)C(=O)c1c(cc(C)c(O)c1OC)C2=O` is reported as 53.9 ± 6.85% (HepaRG co-cultured with HK-2; MTT; 266.67 µM, 24 h; reference: untreated control).
For `Nc1nc2c(ncn2[C@@H]2O[C@H](COP(=O)(O)O)[C@@H](O)[C@H]2O)c(=O)[nH]1`, the reaction rate was -0.405 s⁻¹ and 1.88 s⁻¹ and 0.878 s⁻¹ (GUK1 (Homo sapiens, UniProt Q16774, R148A); enzyme activity, NADH-coupled; 7.812 µM).
With `CC(C)C[C@@H]1NC(=O)[C@H](C(C)C)NC(=O)CNC(=O)[C@H](CC(N)=O)NC(=O)[C@@H]2CCCN2C(=O)[C@H](Cc2ccc(O)cc2)NC(=O)[C@H](CCCNC(=N)N)NC(=O)[C@H](Cc2ccccc2)NC(=O)[C@@H](NC(=O)[C@H](CCCCN)NC(=O)[C@H](C)NC(=O)[C@H](CO)NC(=O)[C@H](C)NC(=O)[C@@H](N)Cc2ccc(O)cc2)CSSC[C@@H](C(=O)N[C@H](C(N)=O)[C@@H](C)O)NC(=O)[C@H](C)NC1=O` the -TΔS was -3.33 kcal/mol (Alpha-2-HS-glycoprotein, asialo (AHSG, Bos taurus, UniProt P12763); binding, isothermal titration calorimetry; pH 7.0, 25 °C, with: asialofetuin).
The inhibition of `CC[C@@H]1[C@H](F)C(=O)N[C@@H]1COc1nccc2cc(C(N)=O)c(OC)cc12` is reported as -9.7% (RPS6KA3 (Homo sapiens, UniProt P51812); ATP probe binding, KiNativ profiling, item: domain 2 Lys2 site; THP-1 cell lysate; 0.01 mM).
The confluence of `Clc1ccc(C(c2c[nH]c3ccccc23)c2c[nH]c3ccccc23)cc1` is reported as 0.49 ± 0.05 (COS-7; 10 µM, 24 h, 0.1% DMSO, unit not given; reference: vehicle control).
`c1ccc(C(NCc2cccnc2)(c2ccccc2)c2ccccc2)cc1` — result for “deactivation time constant”: 1.7 ± 0.4 s (Potassium voltage-gated channel subfamily KQT member 1, with KCNE1 (KCNQ1, Homo sapiens, UniProt P51787); IKs; 300 pM, with KCNE1).
